Measurements gathered from unrelated publications.
A part holds a random share of what one study measured.

Block 1 — method: Sort-seq; refers to: YFP reporter; matrix: E. coli; notes: PhoQ-PhoP variant library; with: 10 µM Mg2+; reference: high Mg2+ state; reading: higher = stronger signaling; quantity: fold induction
Molecule: PhoQ, residues 284 288 289 292 302 303 SLGVVW
PhoP, residues 12 14 15 18 19 GMGLL (Escherichia coli, UniProt P23836): 15.4
PhoP, residues 12 14 15 18 19 QQAYL (Escherichia coli, UniProt P23836): 34.4
PhoP, residues 12 14 15 18 19 LFHKL (Escherichia coli, UniProt P23836): 2.88

Block 2 — method: protein binding microarray; molecule type: double-stranded DNA, one strand shown; matrix: in vitro; concentration: not given; reference: not given; reading: higher = stronger binding; quantity: E-score
Target: Histone acetyltransferase KAT6A, winged helix 2, GST fusion (KAT6A, Homo sapiens, UniProt Q92794, residues 85-181)
Notes: 8-mer, flanks averaged, mean of 2 arrays, mostly near background
Residues (chain): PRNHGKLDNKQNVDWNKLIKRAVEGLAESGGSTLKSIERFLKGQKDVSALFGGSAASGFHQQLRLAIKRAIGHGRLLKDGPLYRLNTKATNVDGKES
ACCCCACT: -0.139
CTGTTCAC: -0.0691
CTAGTCCC: 0.00464
CTTGACTA: -0.0341
TACTATGA: 0.0274
ATGGTCCG: 0.0408
GGCGGCTA: 0.142
TAAAGGAA: -0.142
CACCGATC: -0.0788
CCAGGCCA: -0.0379
AATCCTCG: -0.0561
ACACAGAT: -0.0726
AAATTAAG: 0.0072
CTGGATTA: -0.0618
GACTCACA: 0.0535
CACGCGTA: -0.193
ACATTGGG: -0.246
TACGACAA: 0.0312
AGGCTACC: -0.0333
ATGAAAGG: 0.0138
CCGGGGGC: 0.133
GCATAAAA: 0.0693
ACTAGTAG: -0.109
ATCAGGTA: 0.056
CTTGCGCC: 0.0664

Block 3 — method: RNAcompete; molecule type: RNA; matrix: in vitro; concentration: 20 nM; notes: 7-mer, probes averaged, single round; reference: mean of 7-mers; reading: higher = stronger binding; quantity: 7-mer Z-score
Target: PABPC1L2, full length, GST fusion (mouse, UniProt A0ABA7IW68)
CAAUCCC: -0.387
AACAGUC: 0.532
UUGUCGU: -0.394
UUGUUCU: -0.512
CAUGGUU: -0.347
CCAGCCG: -0.374
AUUAGGU: 0.0986
UCUUCAC: -0.356
GCCCUCG: -0.376
AGCUAAG: -0.15
AAGAAUC: 0.505
UUCAUUU: -0.224
AGGGUUG: 0.0605
GUGAGUC: -0.4
CGAACUG: -0.17
CGUGCAU: -0.0772
CGUGGGG: 0.307
GUUAGGU: -0.168
GCGCUUU: -0.226
CCGGCUA: -0.26
UCGCUAU: -0.309
GCGCGAG: -0.307
CAGGCGG: 0.16
UGUGCUA: -0.0319
CUGCGAG: -0.0246

Block 4 — method: RNA Bind-n-Seq; molecule type: RNA; matrix: in vitro; concentration: 200 nM; notes: whole 134-nt RNA, ends assumed; with: 150 mM KCl; reference: input library; reading: higher = stronger binding; quantity: log2 enrichment
Target: Fragile X messenger ribonucleoprotein 1, C-terminal low-complexity region (Fmr1, Mus musculus, UniProt P35922)
Shared flanks, not repeated: GGGAGUUCUACAGUCCGACGAUC … UGGAAUUCUCGGGUGUCAAGG
GCAGGAAGUAAAAACAAAUGGAAAUGCUUCGGAUACUGGCAGGGGUGGGGGUUGCUAAGGAAAGGGUGGGAUGGGAGUGGGUAAAGAGUU: 0.302
UCCUGUGCUACACAUCGUAUGUACCGAAUCGGGCCCCCCGGCCCCCCGGCCCCCCGGGGAAAGUAUUAUGUUACGCCGUUCGGAUCUGCA: -0.0254
CCUGUGCUACACAUCGUAUGUACCGAAUCGGGGUUUGGGGUUUUUUUGGGGAAAAAGGGGAAAGUAUUAUGUUACGCCGUUCGGAUCUGC: 0.421
UCAAGUCCUGUGCUACACAUCGUAUGUACCGAAUCGGGGAAAGGAAAGGAAAGGAAAGUAUUAUGUUACGCCGUUCGGAUCUGCACUUCC: -0.698
UCCCAGCCGAGGACGUCGGAUGUCAUCGUCCUUGCUGCUUUGCCACCCCAUUCCCGUCAAUAAAGUGGUUUGAACCCAACCCUGGUGUCG: -1.37
CACAGACAACACGCACCCACACAGACACAGAGGGAAGGGGUUGGGAUGGGGACAGGGUGCACAGCAGGGCGGGGUAGGAAACCAGCCCCU: 1.09
UGGCCCUGGUGGCAUGCGGGGAGGAAGAGGUGGCCUCAUGAAUCGUGGUGGUCCCGGUGGAAUGUUCAGAGGUGGCCGUGGUGGAGACAG: -0.0364
UGGGAGGUGGAUUUUGUUUAUUUUUUUAGCUCAUUUCCAGGGGUGGGAAUUUUUUUUUAAUAUGUGUCAUGAAUAAAGUUGUUAUUGAAA: 0.154
UCAAGUCCUGUGCUACACAUCGUAUGUACCGAAUCGGUUUUUUUGGAAAGGUGGAAAGUAUUAUGUUACGCCGUUCGGAUCUGCACUUCC: -0.532
UGGGAGGUGGAUUUUGUUUAUUUUUUUAGCUCAUUUCCAGGGGUGGGAAUUUUUUUUUAAUAUGUGCCAUGAAUAAAGUUGUUUUUGAAA: 0.202
AGUCCUGUGCUACACAUCGUAUGUACCGAAUCGGGCCCCGGGGCCCCGGGGCCCCGGAAAGUAUUAUGUUACGCCGUUCGGAUCUGCACU: -0.0567
CUGUGCUACACAUCGUAUGUACCGAAUCGGGGAAAAAAAGGGGAAAAAAAGGGAAAAAAAGGAAAGUAUUAUGUUACGCCGUUCGGAUCU: -0.308
UGUGCUACACAUCGUAUGUACCGAAUCGGGCCCCCCCGGGGCCCCCCCGGGCCCCCCCGGGGAAAGUAUUAUGUUACGCCGUUCGGAUCU: -1.63
CAAGUCCUGUGCUACACAUCGUAUGUACCGAAUCGGGUUUUUUUGGGUGGGUGGGAAAGUAUUAUGUUACGCCGUUCGGAUCUGCACUUC: 0.964

Block 5 — method: universal PBM; molecule type: double-stranded DNA, one strand shown; matrix: in vitro; concentration: 600 nM; reading: higher = stronger binding; quantity: E-score
Target: Sal-like protein 4, full length isoform A (SALL4, Homo sapiens, UniProt Q9UJQ4, residues 1-1053)
Chain of UniProt Q9UJQ4 (whole entry, looked up): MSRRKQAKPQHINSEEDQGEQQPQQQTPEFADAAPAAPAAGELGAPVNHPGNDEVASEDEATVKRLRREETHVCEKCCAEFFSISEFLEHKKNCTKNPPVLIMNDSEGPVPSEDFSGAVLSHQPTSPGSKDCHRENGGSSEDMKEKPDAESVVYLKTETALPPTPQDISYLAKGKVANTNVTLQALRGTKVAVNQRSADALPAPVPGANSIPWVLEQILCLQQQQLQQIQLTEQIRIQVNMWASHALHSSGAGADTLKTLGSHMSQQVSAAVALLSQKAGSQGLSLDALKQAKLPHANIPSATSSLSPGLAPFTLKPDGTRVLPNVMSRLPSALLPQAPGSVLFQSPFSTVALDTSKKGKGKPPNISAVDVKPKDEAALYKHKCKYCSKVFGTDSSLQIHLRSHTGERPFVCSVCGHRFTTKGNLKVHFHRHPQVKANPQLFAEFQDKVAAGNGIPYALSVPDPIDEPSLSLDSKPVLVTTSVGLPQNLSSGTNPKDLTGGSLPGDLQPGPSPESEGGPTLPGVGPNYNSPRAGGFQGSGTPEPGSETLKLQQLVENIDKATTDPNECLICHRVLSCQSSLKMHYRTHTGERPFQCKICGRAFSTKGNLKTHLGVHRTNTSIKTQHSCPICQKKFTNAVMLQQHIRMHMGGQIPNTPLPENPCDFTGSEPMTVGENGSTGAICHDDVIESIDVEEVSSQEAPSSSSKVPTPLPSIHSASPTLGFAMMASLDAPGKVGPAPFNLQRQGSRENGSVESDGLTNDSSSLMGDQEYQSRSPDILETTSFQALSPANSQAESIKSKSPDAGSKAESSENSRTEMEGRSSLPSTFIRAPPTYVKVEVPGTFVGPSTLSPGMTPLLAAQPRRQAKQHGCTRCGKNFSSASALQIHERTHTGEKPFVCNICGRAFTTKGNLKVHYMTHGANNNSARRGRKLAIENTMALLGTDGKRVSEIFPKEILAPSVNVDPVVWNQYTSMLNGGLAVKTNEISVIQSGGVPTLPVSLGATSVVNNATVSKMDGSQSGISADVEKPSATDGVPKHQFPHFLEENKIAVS
Notes: 8-mer, flanks averaged, mean of replicates
AGAATTAG: 0.113
CCTTGTCC: -0.159
CCAGCGGA: -0.359
CACTTGTA: 0.147
CGCAAATC: -0.00331
ACAGTGAC: -0.0126
CCAACGAG: -0.0636
AATAACTG: 0.319
GAGATGAA: -0.0382
AGACCCCA: -0.131
ACAACACG: 0.0101
ACTATGCA: 0.0251
AAGGTTTC: -0.012
AAAGACCT: 0.044
AGAGAGGC: -0.21
CTGTTGAA: 0.234
CCTGTCTA: -0.0225

Block 6 — method: protein-binding microarray; molecule type: double-stranded DNA, one strand shown; matrix: in vitro; concentration: 2540 nM top; notes: 60-bp whole probe; with: salmon DNA 0.4 mg/ml; reference: random background probes; reading: higher = stronger binding; quantity: fitted relative affinity; shared flanks, not repeated: GCCTAGCAC … GTCTTGATTCGCTTGACGCTGCTG
Target: Interferon regulatory factor 3, full length, phosphomimetic (IRF3, Homo sapiens, UniProt Q14653, residues 1-427, S386D/S396D/S398D/S402D/T404D/S405D)
Construct (chain): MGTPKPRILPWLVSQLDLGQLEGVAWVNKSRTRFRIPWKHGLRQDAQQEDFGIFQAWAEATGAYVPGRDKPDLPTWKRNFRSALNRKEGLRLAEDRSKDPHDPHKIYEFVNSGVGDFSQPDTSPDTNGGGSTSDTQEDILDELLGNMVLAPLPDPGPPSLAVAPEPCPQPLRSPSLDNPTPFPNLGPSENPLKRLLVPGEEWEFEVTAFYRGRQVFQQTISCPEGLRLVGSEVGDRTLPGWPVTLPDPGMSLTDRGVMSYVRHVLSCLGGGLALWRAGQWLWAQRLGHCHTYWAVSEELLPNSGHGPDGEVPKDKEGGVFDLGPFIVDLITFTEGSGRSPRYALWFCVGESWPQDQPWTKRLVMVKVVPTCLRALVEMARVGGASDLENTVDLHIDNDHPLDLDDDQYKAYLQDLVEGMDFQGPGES
ATAGGTATCCTTCTCCTTTAGTGCTAG: 7.06 z-score
GACGGTATCGGACTTGGGACGTGCTAG: 2.57 z-score
TTACATTTCGGGACTGGATTAGTGCTA: 1.32 z-score
TCAACTCTCTAATTTTGACTGTGCTAG: 0.234 z-score
TCATATTTTTTTGTAATACTGTGCTAG: 0.565 z-score
GACGGTTTCAGGACTGGGGACGTGCTA: 3.06 z-score
GGGACTTTGAATTAGAAAGAGTGCTAG: -0.411 z-score
GTCGGTCTCCTTATCCTGACGTGCTAG: 4.19 z-score
TTAGGTTCCCTTTTCTTTTAGTGCTAG: 8.01 z-score
TTAGGACTGGCTTTCGGTTAGTGCTAG: 0.563 z-score
TTAGGTATCGGGTATAGGTTAGTGCTA: 0.936 z-score
TTAGGTATCGGGTTACGGTTAGTGCTA: 2.02 z-score
CTCCAACAAGGCTATCCCTCGTGCTAG: -0.541 z-score
TTAGGTATCGACACTCGGTTAGTGCTA: 0.17 z-score
GGTTTTCTGGTTCCCATTCCGTGCTAG: 3.61 z-score
GACGGTATCCTACTTCTGACGTGCTAG: 4.07 z-score
GACGAATTGAGACTGGAGACGTGCTAG: -0.173 z-score

Block 7 — method: RNA Bind-n-Seq; molecule type: RNA; matrix: in vitro; concentration: 365 nM; reference: no-protein control; reading: higher = stronger binding; quantity: RBNS enrichment (R)
Target: RNA binding protein fox-1 homolog 2, RRM domain, GST-SBP tag (RBFOX2, Homo sapiens, UniProt O43251-10, residues 100-194)
Notes: natural RNA segment, single round, ends assumed
Shared flanks, not repeated: GGGAGUUCUACAGUCCGACGAUC … UGGAAUUCUCGGGUGCCAA
Residues (chain): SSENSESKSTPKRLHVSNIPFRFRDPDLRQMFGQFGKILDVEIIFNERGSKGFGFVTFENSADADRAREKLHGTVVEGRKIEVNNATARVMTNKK
GAUCUAUUGCAGAUAUUUGAUGUAGUUUUCUUUUUUAAAUUAAUCAGAAACCCCACUUCCAUUGUAUUGUCUGACACAUGCUCUCAAUAUAUAAUAAAUGGGAAAUGUCG: 0.411
GUCAUCUUCAUCCUCUAGGACAUUUAAAACAUGCUCAGUCCCUGGACCCAGAUGAUGGCUUCUCAGGGCAAGUCAUAAGUUAUCAGGUCCACUUGUCUGGAAGAAUAACA: 0.573
UAUUACUAGCUAGUAUUAGGUUGAAGUUGGGGGUGGGGGCUUUCUCCGUAGGCUUGGGGAUGGUUCCCUCAAAGUGAGCCACUAUUAGAUUUGCCCAUCAGGGGAAAAGA: 0.388
UUUUCUUCCUUGCCUUUGGGUGUCUGCUUGCCACUUCCUAAGAAUUCUUGUAGAAGGCAGUUUCCUCUACUUGCCCAAGAGCACUGAGUACUUCUCUACUAUCCUAUUAU: 0.496
UAAUUGGGGGUGGGUUACAAAACAUUUGAUCCUUGUAAAUACAUUGUACAGAAUAUUUAUUUUUUCUCAAAAUGCAUUUUAACUACUACAUUGGCUGUGCCCAAAUGAGU: 0.549
GUGUUAACUUGUUUAGUCCCCUUUACUCUGAGAUAGGUACUGUUACCCCAGUUUUACAAAUGGCUAAGCUGAAGCAGAGAUGUUGAAGGAUCCUACCUAAGGGGCACAAC: 0.392
UAUAGUCUUCAGGUUCACAUGAACUUGGCUGUAUUCUGAUAACAUUGAGACCGUUUUCCACCAAGUUAGCCUCAUUUGUUCAGUAACACAUCUUACCGAGGAAAGGAGGC: 0.243
UCUGUCCAGAGGCUUUAAAACUGGUGCAAUUACAGCAAAAAGGGAUUCUGUAGCUUUAACUUGUAAACCACAUCUUUUUUGCACUUUUUUUAUAAGCAAAAACGUGCCGU: 0.377
UCUUCCCACAUCAGAGAAUUUUUUUUUAAACCAAAAUGGGCAGAAUAGCAUUUUGUAUGUUAGAGACCAUUCUUUUCUAGUCCUUCCAAACAUUCCUGUGUCACUUAAGA: 0.865
UGGUUCCUCUUUCUCCAUCACUGGCUCCUUCUUUGAUGCUCUCUCCCCAUCUCAGGGUCAGACCAGCCUUCUCUCUUUACCUUCUUUAACCUGUCUCCCCUCCCUGGUUG: 0.821
GAAACCCUUCACACCCCAGGCCCUUCAGGAACUGGGGCCUUGCCUUGCAGCCACAUGGCCCCAUCCCAGUUGGGGAAGCCAGGUGAGCUCUGACCCUUGGGCCUGGGCCU: 0.747
GCUUAUCUGGGUGGGUGGGGAUGCCUGUUUACACUAGCGCUGACUCCCAACGGUGACGGCUCCCUUCCCCACUCCAUGGCGCCAGCCUCCUCCCCCGCUCCCCAACUUCU: 0.488

A few entries again (block 5):
CGCAAATC: -0.00331
ACAGTGAC: -0.0126
CCAACGAG: -0.0636
AATAACTG: 0.319
GAGATGAA: -0.0382
AGACCCCA: -0.131
ACAACACG: 0.0101
ACTATGCA: 0.0251
AAGGTTTC: -0.012
AAAGACCT: 0.044
